Measured values from different studies.
Each line is one published result; not all experiments were run side by side. ± marks the error that the study gave.

CCn1ncc2c1-c1cnc(N)c(c1)O[C@H](C)c1cc(F)ccc1-c1nn(C)nc1C2
unbound plasma concentration (female Balb/c nude mouse; 3 mg/kg twice daily, 1 h, steady state): 275 ± 32 nM

NS(=O)(=O)c1nnc(NC(=O)C2CCCC3(CCCCC3)C2)s1 (centres unmarked)
unbound fraction (mouse, plasma): 0.12

C[C@@H](N)COc1ccc(-c2cnc3ccc(N[C@H](C)c4cccc(F)c4)nn23)cc1
unbound brain concentration (female Balb/c nude mouse; 100 mg/kg once daily, 1 h, steady state): 28 ± 2 nM

Cc1ccc(CCC(=O)Nc2nnc(S(N)(=O)=O)s2)cc1
unbound plasma concentration (BALB/c mouse, male, plasma; oral, 20 mg/kg, 0.5 h): 3.23 ng/mL

CCn1ncc2c1-c1cnc(N)c(c1)O[C@H](C)c1cc(F)ccc1-c1nn(C)nc1C2
unbound concentration (Balb/c nude mouse, female, PDX, plasma; po, 0.04 mg/kg BID, 1 h, 5 days dosing): 4.4 ± 0.3 nM

NS(=O)(=O)c1nnc(NC(=O)CCC2CCC(F)(F)CC2)s1
unbound fraction (mouse, plasma): 0.22

COc1cc2c(Nc3ccc(Cl)c(Cl)c3F)ncnc2cc1OC[C@@H]1C[C@@H]2CN(C)C[C@@H]2C1
unbound fraction (rapid equilibrium dialysis; FVB mouse, brain tissue; 5 µM, 6 h, pH 7.4): 0.11%

CN1CCN(C(=O)[C@H](CCCN[C@@H]2C[C@H]2c2ccc(F)cc2)NC(=O)c2ccc(-n3ccnn3)cc2)CC1
unbound plasma concentration (NOD/SCID mouse MV4-11 xenograft, plasma; oral, 15 mg/kg/day, 24 h): 2.9 ng/mL

CO[C@H]1/C=C/O[C@@]2(C)Oc3c(C)c(O)c4c(c3C2=O)C2=NC3(CCN(CC(C)C)CC3)NC2=C(NC(=O)/C(C)=C/C=C/[C@H](C)[C@H](O)[C@@H](C)[C@@H](O)[C@@H](C)[C@H](OC(=O)Nc2c(C)nc3ccccn23)[C@@H]1C)C4=O
unbound fraction (rapid equilibrium dialysis; mouse, plasma): 8.64

C=CC(=O)N1CC2(CCN(c3nc4c(c(-c5cc(O)cc6ccccc56)c3C#N)C[C@H]3C[C@@H]4C3(C)C)C2)C1
unbound AUC (mouse, plasma; oral, 5 mg/kg): 1 nM·h

Cc1c(C(=O)O)ccc2c3n(nc12)[C@@H]1[C@H](C3)N(CC2CC2)[C@@]2(C(=O)Nc3cc(Cl)ccc32)[C@H]1c1cccc(Cl)c1F
unbound Cmax (CD1 mouse, plasma; po, 1.5 mg/kg): 7.5 nM
